# Measurements of several laboratories.
# Every numbered part comes from another study and shows a few of its results, in no order. Positions count from the first letter of the parent shown.

# Sample 1 — technique: protein binding microarray; molecule type: double-stranded DNA, one strand shown; medium: in vitro; concentration: not given; baseline: not given; direction: higher = stronger binding
# Target: Histone acetyltransferase KAT6A, winged helix 2, GST fusion (KAT6A, Homo sapiens, UniProt Q92794, residues 85-181)
# Setting: 8-mer, flanks averaged, mean of 2 arrays, mostly near background
# Target sequence (chain): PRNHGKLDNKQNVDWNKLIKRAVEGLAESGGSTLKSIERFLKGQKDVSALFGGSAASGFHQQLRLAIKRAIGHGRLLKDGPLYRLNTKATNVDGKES
Strand,E-score
CAACAAGG,0.0884
CGCGTTTA,-0.109
CTGAGGAA,0.0268
CTTTATCC,-0.0927
GTCAGCGA,-0.108
AGTCTAGC,-0.208
GATCAATA,-0.0516
AAATGGTC,0.0645
CAAGATTA,0.033
GGTATCGA,0.0809
TCACGACA,-0.0417
CATTACAA,0.0353
TGCACGAA,0.0536
GCCAATTA,0.0164
CGTAAGGA,-0.182
AAATCCGC,0.0807
CTCTTTCC,0.00551
CTAGCCGC,0.172
CCTCGGGC,0.109
AACTTGTG,0.114
AGCTTGGC,0.0683
CGCTTTGA,-0.0741
ATGCATAA,-0.155
CCTTCGTA,-0.0267
AATTCATC,-0.0952

# Sample 2 — technique: DHFR PCA, deep sequencing; medium: yeast; together with: (+)-ABA 0.032 µM; baseline: wild-type fitted maximum; direction: higher = stronger binding
# Target: ABI1, truncated, D143A, DHFR fusion (Arabidopsis thaliana)
# Setting: methotrexate growth selection, single substitutions
# Starting sequence: PYL1, truncated, DHFR fusion (Arabidopsis thaliana); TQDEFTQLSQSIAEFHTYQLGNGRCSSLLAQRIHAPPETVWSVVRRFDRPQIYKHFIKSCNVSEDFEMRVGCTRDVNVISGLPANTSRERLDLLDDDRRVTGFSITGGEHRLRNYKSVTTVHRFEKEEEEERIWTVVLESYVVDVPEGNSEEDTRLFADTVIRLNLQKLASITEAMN
Change,relative binding score
A35N,-3.81%
S27L,2.73%
R99H,40.9%
E109I,0.706%
S150F,-10.6%
V118A,2.44%
G107Q,14.4%
N77R,49.7%
L82S,6.87%
G102Q,0.108%
N165L,2.52%
V145F,-10.7%
R155N,-2.9%
Q2A,45.6%
T135H,-3.57%

# Sample 3 — target: UBE2Z UBC core domain (UniProt Q9H832); technique: yeast two-hybrid; medium: yeast; setting: mostly zero background; baseline: not given; direction: higher = stronger interaction
# B1: MKRN1 RING domain (UniProt Q9UHC7); chain FAVQRSKDMVCGICMEVVYEKANPSERRFGILSNCNHTYCLKCIRKWRSAKQFESKIIKSCPECRITSNFVIPSE
# B2: NEURL1 RING domain (UniProt O76050); chain VTPGLGQWSDECTICYEHAVDTVIYTCGHMCLCYACGLRLKKALHACCPICRRPIKDIIKT
# B3: TRIM13 RING domain (UniProt O60858); chain MELLEEDLTCPICCSLFDDPRVLPCSHNFCKKCLEGILEGSVRNSLWRPAPFKCPTCRKETSATGINS
# B4: RNF111 RING domain (UniProt Q6ZNA4); chain EGTEEDTEEKCTICLSILEEGEDVRRLPCMHLFHQVCVDQWLITNKKCPICRVDIEAQLPSE
# B5: SH3RF2 RING domain (UniProt Q8TEC5); chain DDLTLLDLLECPVCFEKLDVTAKVLPCQHTFCKPCLQRVFKAHKELRCPECRTPVFSNIEAL
# B6: TRIM4 RING domain (UniProt Q9C037); chain EAEDIQEELTCPICLDYFQDPVSIECGHNFCRGCLHRNWAPGGGPFPCPECRHPSAPAALRP
# B7: RNF38 RING domain (UniProt Q9H0F5); chain PNNHQSEQTLCVVCMCDFESRQLLRVLPCNHEFHAKCVDKWLKANRTCPICRADASEVHRDS
# B8: TRIM5 RING domain (UniProt Q9C035); chain ILVNVKEEVTCPICLELLTQPLSLDCGHSFCQACLTANHKKSMLDKGESSCPVCRISYQPENIRP
# B9: RC3H1 RING domain (UniProt Q5TC82); chain QAPQWTDFLSCPICTQTFDETIRKPISLGCGHTVCKMCLNKLHRKACPFDQTTINTDIELL
# Residues (chain): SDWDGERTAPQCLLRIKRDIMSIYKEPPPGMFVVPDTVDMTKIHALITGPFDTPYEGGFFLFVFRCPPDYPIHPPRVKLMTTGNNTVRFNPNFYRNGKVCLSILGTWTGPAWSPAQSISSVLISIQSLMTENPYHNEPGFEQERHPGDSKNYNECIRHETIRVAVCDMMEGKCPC
Molecule,lacZ reporter activity
B1 (MKRN1 RING domain),0
B2 (NEURL1 RING domain),8730
QVDKAVFHMQSVKCLKCQEQKRAVLPCQHAALCELCAEGSECPICQPGRAHTLQS (UNK RING domain (UniProt Q9C0B0)),0
B3 (TRIM13 RING domain),0
B4 (RNF111 RING domain),0
VEPSEENSKDCVVCQNGTVNWVLLPCRHTCLCDGCVKYFQQCPMCRQFVQESFALC (CGRRF1 RING domain (UniProt Q99675)),0
B5 (SH3RF2 RING domain),0
B6 (TRIM4 RING domain),0
DHGAVGQEMCCPICCSEYVKGEVATELPCHHYFHKPCVSIWLQKSGTCPVCRCMFPPPL (PJA1 RING domain (UniProt Q8NG27)),2570
B7 (RNF38 RING domain),0
B8 (TRIM5 RING domain),0
B9 (RC3H1 RING domain),0

# Sample 4 — technique: universal PBM; molecule type: double-stranded DNA, one strand shown; medium: in vitro; concentration: not given; direction: higher = stronger binding
# Target: Sal-like protein 4, full length isoform B (SALL4, Homo sapiens, UniProt Q9UJQ4-2, residues 1-616)
# Setting: 8-mer, flanks averaged, mean of replicates
Strand,E-score
TAAGGAGA,0.0828
CCAGATGC,-0.169
AACTGCAT,0.15
TGACCGAA,-0.142
GACCTACC,-0.229
AGTGACCC,-0.342
GCCAAAGC,-0.146
AGTCTAGG,0.0539
ATATTGAG,0.272
ACCCGATG,-0.191
ATTAGCCC,0.00303
GCTAGAGC,-0.185
AACACCGG,-0.112
AGCGAAGG,-0.142
AGAGGCCC,-0.291
AGCTCAGG,-0.228
GTAGGTAA,0.0518
ACTGCACC,-0.162
CATTGACC,0.136
TGGAGGAA,-0.0318
ACACATGC,-0.0308
GGCTCGCA,-0.141
ACTCGTCT,-0.0175
AACGCTAT,0.0603
AACGGGGC,-0.153

# Sample 5 — target: CCND3, cyclin fold, Cln2 fusion (human); technique: yeast growth competition, sequencing; medium: yeast; setting: weak parent motif; baseline: not given; direction: higher = stronger binding
# Starting sequence: CDC6 docking peptide (human); TLKGRRLVFDNQL; partner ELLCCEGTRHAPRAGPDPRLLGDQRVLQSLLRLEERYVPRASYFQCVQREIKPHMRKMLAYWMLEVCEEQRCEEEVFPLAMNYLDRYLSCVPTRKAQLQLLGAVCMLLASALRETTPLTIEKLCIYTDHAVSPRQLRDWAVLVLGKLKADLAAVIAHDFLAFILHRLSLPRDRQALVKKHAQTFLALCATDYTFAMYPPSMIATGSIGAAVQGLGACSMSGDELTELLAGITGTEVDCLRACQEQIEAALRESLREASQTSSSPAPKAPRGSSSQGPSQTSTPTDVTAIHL
Change,normalised enrichment score
TLKGQRLVFDNQL [R5Q],-0.00523
TLKGRRLVFHNQL [D10H],0.136
TLSGRRLVFDNQL [K3S],0.131
TLKHRRLVFDNQL [G4H],0.145
TLKGRRLVCDNQL [F9C],0.0892
TPKGRRLVFDNQL [L2P],0.0974
TLKGLRLVFDNQL [R5L],0.138
TLKGRRLVFDNWL [Q12W],0.223
TLKGRRLVFDNQN [L13N],0.0825
TTKGRRLVFDNQL [L2T],0.0343
THKGRRLVFDNQL [L2H],0.0507
TLKGRRLVEDNQL [F9E],0.158
FLKGRRLVFDNQL [T1F],0.0181
TLCGRRLVFDNQL [K3C],0.154
KLKGRRLVFDNQL [T1K],0.189
LLKGRRLVFDNQL [T1L],0.178
TLKGRRLVFDNQR [L13R],0.0964
TLKGRRLAFDNQL [V8A],0.14
TSKGRRLVFDNQL [L2S],0.00951
TLKGRRLVKDNQL [F9K],0.264

# Excerpt of the above (sample 1):
Strand,E-score
AAATCCGC,0.0807
CTTTATCC,-0.0927
AGTCTAGC,-0.208
CGCGTTTA,-0.109
GGTATCGA,0.0809
TGCACGAA,0.0536
CGTAAGGA,-0.182
CTGAGGAA,0.0268
CATTACAA,0.0353
AGCTTGGC,0.0683
CTAGCCGC,0.172
CAAGATTA,0.033
CGCTTTGA,-0.0741
